# Measurements of several laboratories.
# Parts stem from different laboratories: compare values within a part only. Substitutions count along the parent as printed.

# Block 1
# Target: Interferon regulatory factor 7, full length, phosphomimetic (IRF7, Homo sapiens, UniProt Q92985, residues 1-503, S471D/S472D/S475D/S476D/S477D/S483D/S484D/S487D)
# Chain of UniProt Q92985 (whole entry, unmodified, looked up): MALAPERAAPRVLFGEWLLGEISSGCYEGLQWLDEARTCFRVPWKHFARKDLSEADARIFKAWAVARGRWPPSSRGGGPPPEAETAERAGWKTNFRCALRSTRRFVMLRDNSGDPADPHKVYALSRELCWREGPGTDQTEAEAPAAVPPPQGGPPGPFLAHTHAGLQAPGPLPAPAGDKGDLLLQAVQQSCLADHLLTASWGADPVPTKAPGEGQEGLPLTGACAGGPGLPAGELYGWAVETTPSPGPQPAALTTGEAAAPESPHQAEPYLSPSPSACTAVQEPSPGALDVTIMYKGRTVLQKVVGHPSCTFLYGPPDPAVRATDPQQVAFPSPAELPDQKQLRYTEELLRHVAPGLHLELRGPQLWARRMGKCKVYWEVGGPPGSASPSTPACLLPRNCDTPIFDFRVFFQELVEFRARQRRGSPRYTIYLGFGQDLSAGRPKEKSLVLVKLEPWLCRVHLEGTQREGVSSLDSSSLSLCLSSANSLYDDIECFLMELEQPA
# Method: protein-binding microarray
# Form: double-stranded DNA, one strand shown
# Matrix: in vitro
# Concentration: 2200 nM top
# Setting: 60-bp whole probe
# Together with: salmon DNA 0.4 mg/ml
# Baseline: random background probes
# Reading: higher = stronger binding
# Shared flanks, not repeated: GCCTAGCAC … GTGCTAGGTCTTGATTCGCTTGACGCTGCTG
Strand,fitted relative affinity [z-score]
GAAGATTTCAATTAAAAAAA,-1.42
TTAGGTCTCGGTTTCGTTTA,6.49
TTAGGTATCCTTATCTTTTA,0.47
CACGAACTGAGTCTCGAGAC,0.203
TACGATATCAGTTTCGAGAC,3.72

# Block 2
# Target: CCNB1, cyclin fold, Cln2 fusion (human)
# Method: yeast growth competition, sequencing
# Matrix: yeast
# Setting: weak parent motif
# Baseline: not given
# Reading: higher = stronger binding
# Starting sequence: SLBP docking peptide (human); ARYKRKLLINDFG
Change,normalised enrichment score
K4C,0.258
G13R,0.74
Y3H,0.939

# Block 3
# Target: Histone acetyltransferase KAT6A, winged helix 1, GST fusion (KAT6A, Homo sapiens, UniProt Q92794, residues 1-85)
# Method: protein binding microarray
# Form: double-stranded DNA, one strand shown
# Matrix: in vitro
# Concentration: not given
# Setting: 8-mer, flanks averaged, mean of 2 arrays, mostly near background
# Baseline: not given
# Reading: higher = stronger binding
# Target sequence (chain): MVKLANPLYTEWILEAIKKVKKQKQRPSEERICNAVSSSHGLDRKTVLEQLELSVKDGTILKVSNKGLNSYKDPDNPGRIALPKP
Strand,E-score
AGTGTCGA,-0.183
CCACTGAA,-0.0275
AATGCCTC,-0.146
ACCTGGGA,-0.195

# Mixed results
Molecule,target,assay,system,setting,how to read,quantity,result
"PhoQ, residues 284 288 289 292 302 303 SSTLLI","PhoP, residues 12 14 15 18 19 LHSVQ (Escherichia coli, UniProt P23836)","Sort-seq, refers to: YFP reporter",E. coli,"PhoQ-PhoP variant library, together with: 10 µM Mg2+","baseline: high Mg2+ state, higher = stronger signaling",fold induction,8.93
